Measured values pooled from the literature.
Compare with care: the assays were run in different laboratories. “And” joins repeats or separate records; there may be more than shown. ± marks the error that the study gave.
UniProt P10635, sequence (whole entry, looked up): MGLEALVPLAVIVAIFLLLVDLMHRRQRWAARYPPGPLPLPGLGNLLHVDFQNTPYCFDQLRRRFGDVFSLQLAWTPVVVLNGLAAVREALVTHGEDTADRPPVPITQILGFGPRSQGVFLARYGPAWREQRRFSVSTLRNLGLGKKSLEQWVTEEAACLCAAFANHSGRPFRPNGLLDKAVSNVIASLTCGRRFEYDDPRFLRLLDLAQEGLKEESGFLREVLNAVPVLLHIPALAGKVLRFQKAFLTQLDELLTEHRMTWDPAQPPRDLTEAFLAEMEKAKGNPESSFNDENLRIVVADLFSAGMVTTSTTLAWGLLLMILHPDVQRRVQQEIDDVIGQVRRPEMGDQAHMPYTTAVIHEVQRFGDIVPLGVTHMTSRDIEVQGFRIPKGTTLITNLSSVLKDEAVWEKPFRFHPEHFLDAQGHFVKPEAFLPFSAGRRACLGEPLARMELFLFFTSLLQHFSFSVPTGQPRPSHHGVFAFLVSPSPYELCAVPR

SMILES	target or system	assay	test system	setting	how to read	measurement	result
Cc1nn(-c2nc3c(F)cc(F)cc3s2)c(O)c1C(c1ccc(C(F)(F)F)cc1)c1c(C)nn(-c2nc3c(F)cc(F)cc3s2)c1O	–	–	ICR mouse, plasma	oral, 50 mg/kg	–	AUC(0-t)	381 µg·h/mL and 361 µg·h/mL and 353 µg·h/mL
CN(Cc1cc(C2CC2)on1)C(=O)c1cccc(-c2ccc(F)cc2)c1	–	metabolic stability	male CD-1 mouse, liver microsomes	2 µM, 0 h, pH 7.5	–	compound remaining	100%
CN1CCC[C@]1(C)/C=C/S(=O)(=O)NC(=O)Nc1c2c(cc3c1CCC3)CC=C2	–	–	human, plasma	oral, 100 mg twice daily of parent drug, day 14, metabolite of dosed drug	–	Cmax at first steady-state dose	54500 ng/mL
O=C(Nc1cnccc1-c1ccc([18F])cc1)c1ccnc(NC(=O)C2CC2)c1	–	ex vivo biodistribution, gamma counting	GSK-3β overexpressing transgenic mouse, late stage, caudate nucleus	intravenous, 1.26 MBq/animal, 120 min post-injection	–	mean SUV	0.12
COc1ccnc(C(=O)N[C@H]2COC(=O)[C@H](Cc3ccccc3)[C@@H](OC(=O)C(C)C)[C@H](C)OC2=O)c1O	–	soil adsorption	clay soil	pH 7.6, organic carbon 1.7 %	–	KFoc	7070 mL/g
CC(C)(O)c1ncc([S@](N)(=O)=NC(=O)Nc2c3c(cc4c2CCC4)CCC3)s1	–	measured: Cardiac disorders	healthy human volunteers	oral, dose not given, 14 days, multiple dose, all active arms	–	subjects with adverse events	3%
O=C(O)CCCOc1ccc([18F])cc1-c1cc(-c2ccccc2C(F)(F)F)n(-c2ccccc2)n1	–	–	mouse, urine	dose not given, 360 min post-injection	–	radioactivity	1 %ID
CN1CCC[C@]1(C)/C=C/S(=O)(=O)NC(=O)Nc1c2c(cc3c1C(O)CC3)CCC2 (some centres unmarked)	–	–	human, plasma	oral, 12.5 mg twice daily of parent drug, day 14, metabolite of dosed drug	–	Cmax at second steady-state dose	3100 ng/mL
CC(=O)N([O-])CCCCCNC(=O)CCC(=O)N([O-])CCCCCNC(=O)CCC(=O)N([O-])CCCCCN.[89Zr+4]	–	–	mouse, bone	4 h	–	tracer uptake	0.05 %ID/g
CNC(=O)C1CCCN(C(=O)C2CC3CCC2N3C(=O)[C@@H]2C[C@@H](O)CN2C(=O)NCc2cccc(Cl)c2F)C1 (mixture of isomers)	Cytochrome P450 2D6 (CYP2D6, Homo sapiens, UniProt P10635)	enzyme activity, inhibitor, time-dependent inhibition	–	5.56 µM, preincubated with NADPH	–	dextrorphan formation	143 ng/mL
O=C([O-])CN1CCN(CC(=O)[O-])CCN(CC(=O)c2ccc(-c3ccc(OCC(=O)O)cc3)cc2)CCN(CC(=O)[O-])CC1.[Eu+3]	–	Eu3+ luminescence decay	HCl 1 M	1 µM, NaCl 0.15 M	–	dissociation half-life	5.5 h
COc1ccc(CNc2nc([C@H]3CC[C@H](C(=O)O)CC3)nc3sc4ccccc4c23)cc1Cl	–	–	NSG mouse	dose not given, day 1 of treatment	–	body weight	21 g and 21.3 g and 18.3 g and 22.9 g
COc1ccc2c(c1)CN(C(=O)CCN1CCC(Cc3ccccc3)CC1)CCS2	–	–	paroxysmal AF patients	oral, 540 mg, 24 h	baseline: baseline	QTcB change	21.1 ms
O=C(c1ccccc1)N1C(c2ccc(OCC3CCN(CCCF)C3)cc2)c2ccc(O)cc2CC12CC2 (centres unmarked)	–	–	C57BL/6J mouse, plasma	intraperitoneal, 25 mg/kg	–	AUC(0-t)	8.2 µg·h/mL
CN(C)S(=O)(=O)c1ccc(S(=O)(=O)N2CCC(n3c(=O)[nH]c4ccccc43)CC2)cc1	–	–	mouse	dose not given, day 5	baseline: day 0	relative body weight	100% and 105% and 102%
Cc1ncsc1-c1ccc(CNC(=O)[C@@H]2C[C@@H](O)CN2C(=O)[C@@H](NC(=O)COCC(C)(COCCOCCOCCNC(=O)C[C@@H]2N=C(c3ccc(Cl)cc3)c3c(sc(C)c3C)-n3c(C)nnc32)COCCOCCOCCNC(=O)C[C@@H]2N=C(c3ccc(Cl)cc3)c3c(sc(C)c3C)-n3c(C)nnc32)C(C)(C)C)cc1	–	–	male C57BL/6 mice, plasma	intravenous, 5 mg/kg, 1 h, sample diluted 20-fold	–	plasma concentration	5410 ng/mL
[11CH3]N1CCC(NC(=O)c2cc(-c3c(O)cc(O)cc3Oc3ccc([N+](=O)[O-])cc3)on2)CC1	–	–	Wistar rat, female, healthy, blood	intravenous, 10 min	–	tissue uptake	9.7 ± 1.1 %ID
CC(C)n1ncc2c(C(=O)NCCN(C)C)cc(C3CC3)nc21	–	metabolic stability	mouse, liver microsomes	–	–	scaled CLint	258 mL/min/kg
Cc1c(Cc2ccc(OC(C)C(=O)O)cc2)c2ccc(C(=O)NC(C)c3ccc(C(C)(C)C)cc3)cc2n1C (mixture of isomers)	–	–	human liver microsomes	1 µM, together with: microsomes 1 mg/mL	–	half-life	> 1 h
Cc1cccc(O[C@H]2CCC[C@@H](C(C)CNCc3ccncc3)C2)c1 (relative stereo)	–	–	C57BL/6 wild-type mouse pups	50 mg/kg, one month	–	body weight	1.8 g and 1.7 g and 1.5 g and 1.6 g
COCC1CN(C2CCN(c3cc(OC)c(Nc4ncc(Br)c(Nc5ccc6c(c5P(C)(C)=O)OCCO6)n4)cc3C)CC2)C1	–	–	EGFR-mutant NSCLC patients, plasma	oral, 150 mg multiple doses, geometric mean	–	Cmax at steady state	1400 ng/mL
C=CC(=O)Nc1cc(Nc2nccc(-c3cn(C)c4ccccc34)n2)c(OC)cc1N(C)CCNC	–	–	human plasma	5 h, storage stability, LLOQ sample	–	recovery	95.1%
CNc1cc(C)c(C(N)=O)cn1	–	–	Han Wistar rats, male, plasma	oral, 30 mg/kg, 0.25 h	–	concentration at time	73.3 µM
C#CCOCCOCCOCCOCCn1cc(C(ONC(=O)/C=C/C(C)=C/C2(C)Oc3cc(N(C)C)ccc3C2=O)(c2ccc(C)cc2)c2ccc(C)cc2)nn1 (centres unmarked)	–	HPLC	aqueous buffer, 20% acetonitrile	concentration not given, 94 min, pH 3	baseline: initial prodrug amount	release from prodrug hydrolysis	70.1%

SMILES	target or system	assay	test system	setting	how to read	measurement	result
CN([O-])C(=O)CN1CCN(CC(=O)N(C)[O-])CCN(Cc2ccccn2)CC1.[89Zr+4]	–	–	mouse, lung	intravenous, 4 h	–	tracer uptake	0.77 %ID/g
O=C(O)CN1CCN(Cc2cccc(C(=O)O)n2)CCN(CP(=O)(O)O)CC1	–	potentiometric titration	–	first phosphonate deprotonation	–	log Ka	< 2
[123I]c1ccc2nc(-c3ccc(-n4ccnn4)nc3)cn2c1	–	–	male Wistar rat, stomach	intravenous, 4 MBq, 6 h	–	tracer uptake	1.02 %ID/g
O=c1[nH]c2ccccc2c(=O)n1O	–	–	Caco-2	10 µM	–	efflux ratio	1.4
O=C(Nc1cnccc1-c1ccc([18F])nc1)c1ccnc(NC(=O)C2CC2)c1	–	PET imaging	FVB/NJ mice, both sexes, liver	intravenous, 60 min post-injection	–	SUV	8.04
CN(C)CCCN(C(=O)c1nc2ccccc2s1)c1nc2ccc(F)cc2s1	Trypanosoma cruzi	reporter mRNA translation, inhibitor, measured: Renilla luciferase mRNA	cell-free extract	concentration not given, test 3	baseline: positive over negative control	translation activity	102%
CC(C)C[C@@H]1NC(=O)[C@H](CCCCN)NC(=O)C(N)CCC=CCCC(C(N)=O)NC(=O)[C@H](CCCCN)NC(=O)[C@H](CC(C)C)NC(=O)[C@H](CCCCN)NC(=O)C2CCC=CCCC(NC(=O)[C@H](CCCCN)NC1=O)C(=O)N[C@@H](CCCCN)C(=O)N1CCC[C@@H]1C(=O)NCC(=O)N[C@@H](CCCCN)C(=O)N2 (some centres unmarked)	–	RP-HPLC C18	–	hydrophobicity	–	retention time	14.9 min
COc1cccc(OC)c1-c1cc(C(=O)NC2(C(=O)O)C3CC4CC(C3)CC2C4)nn1-c1ccc(C(=O)N(C)CCCN(C)CCCN(C)C(=O)[C@H](CCCCNC(=O)[C@H](CC(C)C)NC(=O)C2OC2C(=O)O)NC(=O)CN2CCN(CC(=O)[O-])CCN(CC(=O)[O-])CCN(CC(=O)[O-])CC2)cc1C(C)C.[177Lu+3] (mixture of isomers)	–	–	mouse, HT-29 xenograft, kidney	24 h post injection	–	tissue uptake	8.7 %ID/g
C=CC(=O)Nc1cc(Nc2nccc(-c3c[nH]c4ccccc34)n2)c(OC)cc1N(C)CCN(C)C	–	storage stability	human plasma	2 h, -80 °C, HQC level	–	recovery	97.5%
Cc1c(Cc2ccc(Cl)c(O[C@H](C)C(=O)O)c2)c2ccc(C(=O)N[C@@H](C)c3ccc(C(C)(C)C)cc3)cc2n1C	–	–	human liver microsomes	1 µM, together with: microsomes 1 mg/mL	–	half-life	> 1 h
Cc1cccc(-c2cccc(C)n2)n1.Cc1cccc(-c2cccc(C)n2)n1.F[P-](F)(F)(F)(F)F.F[P-](F)(F)(F)(F)F.[Ru+2].c1ccc2c(c1)Cc1cc(-c3nc4c5cccnc5c5ncccc5c4[nH]3)ccc1-2	–	–	aerated acetonitrile	298 K	baseline: Ru(bpy)3(PF6)2	singlet oxygen quantum yield	0
C=C(NC(=O)c1csc(-c2nc3c(cc2O)-c2nc(cs2)C(=O)NC(C(C)O)C(=O)NC(=C(C)OC)c2nc(cs2)C(=O)NC2c4nc(cs4)C(=O)NC(COC(=O)c4c5c6c(cccc6n4O)COC(=O)C(OC4CC(C)(O)C(N(C)C)C(C)O4)C2OC5)c2nc-3cs2)n1)C(N)=O (centres unmarked)	–	–	ICR mice, Streptococcus pneumoniae ATCC 49169 infected, immunocompromised, blood	intravenous, 2 mg/kg/day twice daily	–	Tmax	4.8 min
CC[C@H](C)[C@H](NC(=O)[C@H](CCCCN)NC(=O)[C@H](CCC(=O)O)NC(=O)[C@H](CCCCN)NC(=O)[C@H](CC(C)C)NC(=O)[C@H](C)NC(=O)[C@H](C)NC(=O)[C@@H](NC(=O)[C@H](CCCCN)NC(=O)[C@@H]1CSCc2cccc(c2)CSC[C@H](NC(=O)[C@@H](NC(=O)[C@H](CCCCN)NC(C)=O)[C@@H](C)CC)C(=O)N[C@@H](C)C(=O)N[C@@H](CC(C)C)C(=O)N[C@@H](CCCCN)C(=O)N1)[C@@H](C)CC)C(=O)N[C@@H](C)C(=O)N[C@@H](C)C(=O)N[C@@H](CC(C)C)C(=O)N[C@@H](CCCCN)C(=O)N[C@@H](CCC(=O)O)C(=O)NCC(=O)N[C@@H](Cc1c[nH]c2ccccc12)C(N)=O	–	tryptophan fluorescence titration	DOPC/DOPE/cholesterol 2:1:1 liposomes in PBS	–	–	ΔG of membrane partitioning	-6.73 kcal/mol
CN1CCCNC(=O)c2cccc(c2)C(=O)NCCCN(C)CCCNc2cccc3c2C(=O)c2cccc(c2C3=O)NCCC1	–	–	mouse xenograft model	dose not given, day 6	–	body weight	26 g and 29 g and 27 g and 23 g
C=CC(=O)N1CCCC(n2c(=O)c3ncccc3n(Cc3ccc(Oc4ccccc4)cc3)c2=O)C1 (centres unmarked)	–	metabolic stability	male CD-1 mouse, hepatocytes	1 µM, 2 h	–	compound remaining	0.3%
CC(C)=CCC1=C([O-])C(=O)c2ccccc2C1=O.CC(C)=CCC1=C([O-])C(=O)c2ccccc2C1=O.Cc1cc2cccnc2c2ncccc12.O.[Cu+2]	–	cyclic voltammetry	CH2Cl2, Bu4NPF6	0.1 mM	baseline: Ag/AgCl sat. KOH	Epa1 anodic peak potential	1.34 V
C/C(N)=N/C(=N\S(=O)(=O)c1ccc(C(F)(F)F)cc1)N1C[C@H](c2ccccc2)C(c2ccc(Cl)cc2)=N1	–	–	male C57BL/6 mouse, muscle	intravenous, 10 mg/kg	–	AUC(0-inf)	21 µg·h/mL
CN(O)C(=O)CCC(=O)NCCCN(CCCCN(CCCNC(=O)CCC(=O)N(C)O)C(=O)CCC(=O)N(C)O)C(=O)CCC(=O)N(C)O.[89Zr]	–	radio-TLC	aqueous buffer	5 d, pH 5, 37 °C, 89Zr-labelled complex, together with: DTPA 100-fold excess	–	intact complex	99 ± 0.7%
[2H]C1([2H])CC[C@@H](C[C@@H](C#N)NC(=O)[C@@H]2[C@@H]3[C@H](CN2C(=O)[C@@H](NC(=O)C(F)F)C(C)(C)C)C3(C)C)C(=O)N1	–	–	hamster hepatocytes	–	–	scaled hepatic intrinsic clearance	< 28.8 mL/min/kg
CC(C)Cc1ccc(C(C)C(=O)N[C@@H](CCCCNC(=O)CCOCCOCCOCCOCCOCCOCCNC(=O)CN2CCN(CC(=O)[O-])CCN(CC(=O)[O-])CCN(CC(=O)[O-])CC2)C(=O)Nc2cccc3c(C(=O)NCC(=O)N4CC(F)(F)C[C@H]4C#N)ccnc23)cc1.[177Lu+3] (some centres unmarked)	–	–	mouse, U-87 MG tumour xenograft, kidneys	24 h	–	tissue uptake	0.95 ± 0.25 %ID/g
CNc1cc(N)c(C(N)=O)cn1	–	–	Han Wistar rats, male, plasma	oral, 30 mg/kg, 4.00 h	–	concentration at time	3.36 µM
Cc1ccc(Nc2nc(NCc3ccco3)c3ccccc3n2)cc1	Trypanosoma cruzi	reporter mRNA translation, inhibitor, measured: Renilla luciferase mRNA	cell-free extract	concentration not given, test 3	baseline: positive over negative control	translation activity	95.2%
CCCCN1C(=O)c2cccc3c(NCCCCCCCCCCN4CCOCC4)ccc(c23)C1=O	–	–	acetonitrile	–	–	fluorescence lifetime	9.5 ns

Repeated from above:
SMILES	target or system	assay	test system	setting	how to read	measurement	result
Cc1cccc(O[C@H]2CCC[C@@H](C(C)CNCc3ccncc3)C2)c1 (relative stereo)	–	–	C57BL/6 wild-type mouse pups	50 mg/kg, one month	–	body weight	1.8 g and 1.7 g and 1.5 g and 1.6 g
COCC1CN(C2CCN(c3cc(OC)c(Nc4ncc(Br)c(Nc5ccc6c(c5P(C)(C)=O)OCCO6)n4)cc3C)CC2)C1	–	–	EGFR-mutant NSCLC patients, plasma	oral, 150 mg multiple doses, geometric mean	–	Cmax at steady state	1400 ng/mL
C=CC(=O)Nc1cc(Nc2nccc(-c3cn(C)c4ccccc34)n2)c(OC)cc1N(C)CCNC	–	–	human plasma	5 h, storage stability, LLOQ sample	–	recovery	95.1%
CNc1cc(C)c(C(N)=O)cn1	–	–	Han Wistar rats, male, plasma	oral, 30 mg/kg, 0.25 h	–	concentration at time	73.3 µM
C#CCOCCOCCOCCOCCn1cc(C(ONC(=O)/C=C/C(C)=C/C2(C)Oc3cc(N(C)C)ccc3C2=O)(c2ccc(C)cc2)c2ccc(C)cc2)nn1 (centres unmarked)	–	HPLC	aqueous buffer, 20% acetonitrile	concentration not given, 94 min, pH 3	baseline: initial prodrug amount	release from prodrug hydrolysis	70.1%
